Measurements of several laboratories.
Lines come from different studies, so protocols differ. Several values in a cell are separate wells, animals, samples, runs or records. ± marks the error that the study gave.
Method: steady-state kinetics
B1: UGT1A9 (Homo sapiens, UniProt O60656); chain GKLLVVPMDGSHWFTMRSVVEKLILRGHEVVVVMPEVSWQLGRSLNCTVKTYSTSYTLEDLDREFKAFAHAQWKAQVRSIYSLLMGSYNDIFDLFFSNCRSLFKDKKLVEYLKESSFDAVFLDPFDNCGLIVAKYFSLPSVVFARGILCHYLEEGAQCPAPLSYVPRILLGFSDAMTFKERVRNHIMHLEEHLLCHRFFKNALEIASEILQTPVTEYDLYSHTSIWLLRTDFVLDYPKPVMPNMIFIGGINCHQGKPLPMEFEAYINASGEHGIVVFSLGSMVSEIPEKKAMAIADALGKIPQTVLWRYTGTRPSNLANNTILVKWLPQNDLLGHPMTRAFITHAGSHGVYESICNGVPMVMMPLFGDQMDNAKRMETKGAGVTLNVLEMTSEDLENALKAVINDKSYKENIMRLSSLHKDRPVEPLDLAVFWVEFVMRHKGAPHLRPAAHDLTWYQYHSLDVIGFLLAVVLTVAFITFKCCAYGYRKCLGKKGRVKKAHKSKTH
B2: GTPBP3 N259A (Homo sapiens, UniProt Q969Y2); chain TRRSSGAPAPGSGATIFALSSGQGRCGIAVIRTSGPASGHALRILTAPRDLPLARHASLRLLSDPRSGEPLDRALVLWFPGPQSFTGEDCVEFHVHGGPAVVSGVLQALGSVPGLRPAEAGEFTRRAFANGKLNLTEVEGLADLIHAETEAQRRQALRQLDGELGHLCRGWAETLTKALAHVEAYIDFGEDDNLEEGVLEQADIEVRALQVALGAHLRDARRGQRLRSGVHVVVTGPPAAGKSSLVNLLSRKPVSIVSPEPGTTRDVLETPVDLAGFPVLLSDTAGLREGVGPVEQEGVRRARERLEQADLILAMLDASDLASPSSCNFLATVVASVGAQSPSDSSQRLLLVLNKSDLLSPEGPGPGPDLPPHLLLSCLTGEGLDGLLEALRKELAAVCGDPSTDPPLLTRARHQHHLQGCLDALGHYKQSKDLALAAEALRVARGHLTRLTGGGGTEEILDIIFQDFCVGK
B3: MauG (Paracoccus denitrificans, UniProt Q51658); chain EQARPADDALAALGAQLFVDPALSRNATQSCATCHDPARAFTDPREGKAGLAVSVGDDGQSHGDRNTPTLGYAALVPAFHRDANGKYKGGQFWDGRADDLKQQAGQPMLNPVEMAMPDRAAVAARLRDDPAYRTGFEALFGKGVLDDPERAFDAAAEALAAYQATGEFSPFDSKYDRVMRGEEKFTPLEEFGYTVFITWNCRLCHMQRKQGVAERETFTNFEYHNIGLPVNETAREASGLGADHVDHGLLARPGIEDPAQSGRFKVPSLRNVAVTGPYMHNGVFTDLRTAILFYNKYTSRRPEAKINPETGAPWGEPEVARNLSLAELQSGLMLDDGRVDALVAFLETLTDRRYEPLLEESRAAQKD
B4: LYS1 C205S/K99M (Saccharomyces cerevisiae, UniProt P38998); chain MAAVTLHLRAETKPLEARAALTPTTVKKLIAKGFKIYVEDSPQSTFNINEYRQAGAIIVPAGSWKTAPRDRIIIGLKEMPETDTFPLVHEHIQFAHCYMDQAGWQNVLMRFIKGHGTLYDLEFLENDQGRRVAAFGFYAGFAGAALGVRDWAFKQTHSDDEDLPAVSPYPNEKALVKDVTKDYKEALATGARKPTVLIIGALGRSGSGAIDLLHKVGIPDANILKWDIKETSRGGPFDEIPQADIFINCIYLSKPIAPFTNMEKLNNPNRRLRTVVDVSADTTNPHNPIPIYTVATVFNKPTVLVPTTAGPKLSVISIDHLPSLLPREASEFFSHDLLPSLELLPQRKTAPVWVRAKKLFDRHCARVKRSSRL
B5: MTRR A129T (Homo sapiens, UniProt Q9UBK8); chain MRRFLLLYATQQGQAKAIAEEICEQAVVHGFSADLHCISESDKYDLKTETAPLVVVVSTTGTGDPPDTARKFVKEIQNQTLPVDFFAHLRYGLLGLGDSEYTYFCNGGKIIDKRLQELGARHFYDTGHTDDCVGLELVVEPWIAGLWPALRKHFRSSRGQEEISGALPVASPASSRTDLVKSELLHIESQVELLRFDDSGRKDSEVLKQNAVNSNQSNVVIEDFESSLTRSVPPLSQASLNIPGLPPEYLQVHLQESLGQEESQVSVTSADPVFQVPISKAVQLTTNDAIKTTLLVELDISNTDFSYQPGDAFSVICPNSDSEVQSLLQRLQLEDKREHCVLLKIKADTKKKGATLPQHIPAGCSLQFIFTWCLEIRAIPKKAFLRALVDYTSDSAEKRRLQELCSKQGAADYSRFVRDACACLLDLLLAFPSCQPPLSLLLEHLPKLQPRPYSCASSSLFHPGKLHFVFNIVEFLSTATTEVLRKGVCTGWLALLVASVLQPNIHASHEDSGKALAPKISISPRTTNSFHLPDDPSIPIIMVGPGTGIAPFIGFLQHREKLQEQHPDGNFGAMWLFFGCRHKDRDYLFRKELRHFLKHGILTHLKVSFSRDAPVGEEEAPAKYVQDNIQLHGQQVARILLQENGHIYVCGDAKNMAKDVHDALVQIISKEVGVEKLEAMKTLATLKEEKRYLQDIWS
B6: protein Y93A (Thermus thermophilus, UniProt Q5SKR5); chain MSAPKPFVIGIAGGTASGKTTLAQALARTLGERVALLPMDHYYKDLGHLPLEERLRVNYDHPDAFDLALYLEHAQALLRGLPVEMPVYDFRAATRSPRRTPVRPAPVVILEGILVLYPKELRDLMDLKVFVDADADERFIRRLKRDVLERGRSLEGVVAQYLEQVKPMHLHFVEPTKRYADVIVPRGGQNPVALEMLAAKALARLARMGAA
B7: YdjH (Escherichia coli, UniProt P77493); chain MDNLDVICIGAAIVDIPLQPVSKNIFDVDSYPLERIAMTTGGDAINEATIISRLGHRTALMSRIGKDAAGQFILDHCRKENIDIQSLKQDVSIDTSINVGLVTEDGERTFVTNRNGSLWKLNIDDVDFARFSQAKLLSLASIFNSPLLDGKALTEIFTQAKARQMIICADMIKPRLNETLDDICEALSYVDYLFPNFAEAKLLTGKETLDEIADCFLACGVKTVVIKTGKDGCFIKRGDMTMKVPAVAGITAIDTIGAGDNFASGFIAALLEGKNLRECARFANATAAISVLSVGATTGVKNRKLVEQLLEEYEG
B8: protein F222G (Planktothrix agardhii, UniProt F5B6Z0); chain MIVNVIQKDRLKEQKLQFIRNHQQAFDVEPIYPLPLFEDFVTSIEGDCSLEASCKIESDKLIASRFLLFFEDKTQEWQKYLHQSLTFFGLVENRVGVKINYSLLQQFLGSSFDFSKVTVLSAGIDLRNNLAESSLKMHIRIKDYPEKLDKAFALSDGAADGNYLKDFVNLIGFDFYFNGKSEIEIYAEVQEDDFFKPEINNLVWQHFPKTALQPLKASSLFGTGLSKANNNPVLYYHLKNRQDLTNYFKLNDTAQRVHSFYQHQDILPYMWVGTAQKELEKTRIENIRLYYYKSFKMESN
B9: cyc1 F198L (Streptomyces coelicolor, UniProt Q9K499); chain MHAFPHGTTATPTAIAVPPSLRLPVIEAAFPRQLHPYWPKLQETTRTWLLEKRLMPADKVEEYADGLCYTDLMAGYYLGAPDEVLQAIADYSAWFFVWDDRHDRDIVHGRAGAWRRLRGLLHTALDSPGDHLHHEDTLVAGFADSVRRLYAFLPATWNARFARHFHTVIEAYDREFHNRTRGIVPGVEEYLELRRLTLAHWIWTDLLEPSSGCELPDAVRKHPAYRRAALLSQEFAAWYNDLCSLPKEIAGDEVHNLGISLITHHSLTLEEAIGEVRRRVEECITEFLAVERDALRFADELADGTVRGKELSGAVRANVGNMRNWFSSVYWFHHESGRYMVDSWDDRSTPPYVNNEAAGEK
B10: asnB (Escherichia coli, UniProt P22106); chain CSIFGVFDIKTDAVELRKKALELSRLMRHRGPDWSGIYASDNAILAHERLSIVDVNAGAQPLYNQQKTHVLAVNGEIYNHQALRAEYGDRYQFQTGSDCEVILALYQEKGPEFLDDLQGMFAFALYDSEKDAYLIGRDHLGIIPLYMGYDEHGQLYVASEMKALVPVCRTIKEFPAGSYLWSQDGEIRSYYHRDWFDYDAVKDNVTDKNELRQALEDSVKSHLMSDVPYGVLLSGGLDSSIISAITKKYAARRVEDQERSEAWWPQLHSFAVGLPGSPDLKAAQEVANHLGTVHHEIHFTVQEGLDAIRDVIYHIETYDVTTIRASTPMYLMSRKIKAMGIKMVLSGEGSDEVFGGYLYFHKAPNAKELHEETVRKLLALHMYDCARANKAMSAWGVEARVPFLDKKFLDVAMRINPQDKMCGNGKMEKHILRECFEAYLPASVAWRQKEQFSDGVGYSWIDTLKEVAAQQVSDQQLETARFRFPYNTPTSKEAYLYREIFEELFPLPSAAECVPGGPSVACSSAKAIEWDEAFKKMDDPSGRAVGVHQSAYK
B11: enzyme (Phocaeicola vulgatus, UniProt A6KWY2); chain MNYNEIGKTGMRVSNLSFGASSLGGVFHDIREAEGIKAVYTAVENGMNFIDVSPYYGHYKAETVLGKALKEIPRDKYYLSTKVGRYGKDGVNTWDYSGKRATESVYESLDRLHIEYIDLINVHDVEFSDMNQVVNETLPALVELKKKGIVGHVGITDLQLENLKWIIDHSEPGTVESVLNFCHYCLNDEKLTDYLDYFESKNIGIINASPLSMGLLSQRGVPAWHPAPQSLVEACRKAVQHCLSKNYPIEKLAIQYSVSNPRIATTLFSSANPDNVLKNITYAEEPIDWNLVKEVQEIIGKQMRISWANS
UniProt P05164, sequence (whole entry, looked up): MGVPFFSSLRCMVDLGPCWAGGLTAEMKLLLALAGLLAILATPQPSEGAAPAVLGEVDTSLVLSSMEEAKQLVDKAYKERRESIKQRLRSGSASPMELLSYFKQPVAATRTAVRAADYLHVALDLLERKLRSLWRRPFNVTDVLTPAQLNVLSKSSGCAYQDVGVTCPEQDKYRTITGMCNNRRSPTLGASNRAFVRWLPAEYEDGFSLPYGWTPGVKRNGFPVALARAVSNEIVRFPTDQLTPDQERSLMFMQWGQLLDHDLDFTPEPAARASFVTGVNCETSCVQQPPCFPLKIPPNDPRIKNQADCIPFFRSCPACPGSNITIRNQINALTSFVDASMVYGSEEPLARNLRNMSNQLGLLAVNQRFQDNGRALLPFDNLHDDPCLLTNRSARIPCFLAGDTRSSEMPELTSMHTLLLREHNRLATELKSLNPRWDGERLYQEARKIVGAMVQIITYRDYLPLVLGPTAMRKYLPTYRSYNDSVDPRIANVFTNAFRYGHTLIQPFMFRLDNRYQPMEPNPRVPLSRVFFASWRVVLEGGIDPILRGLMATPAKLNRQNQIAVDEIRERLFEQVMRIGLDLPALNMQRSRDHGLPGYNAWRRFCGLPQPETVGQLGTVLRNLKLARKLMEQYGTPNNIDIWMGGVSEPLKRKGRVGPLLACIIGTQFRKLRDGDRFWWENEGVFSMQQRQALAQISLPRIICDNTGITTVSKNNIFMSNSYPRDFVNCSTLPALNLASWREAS
UniProt Q8QZR1, sequence (whole entry, looked up): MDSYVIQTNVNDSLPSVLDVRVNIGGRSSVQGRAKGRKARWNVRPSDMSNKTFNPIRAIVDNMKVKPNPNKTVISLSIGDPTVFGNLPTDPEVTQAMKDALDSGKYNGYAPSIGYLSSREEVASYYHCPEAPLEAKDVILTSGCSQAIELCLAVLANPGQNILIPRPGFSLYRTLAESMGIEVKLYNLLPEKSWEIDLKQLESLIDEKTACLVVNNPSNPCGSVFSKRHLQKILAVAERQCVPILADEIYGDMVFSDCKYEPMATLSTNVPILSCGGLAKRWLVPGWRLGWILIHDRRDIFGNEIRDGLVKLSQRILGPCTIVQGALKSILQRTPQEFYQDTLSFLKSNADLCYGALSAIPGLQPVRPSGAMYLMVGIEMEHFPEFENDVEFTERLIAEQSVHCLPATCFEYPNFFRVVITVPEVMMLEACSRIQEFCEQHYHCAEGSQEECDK
UniProt Q04JB0, sequence (whole entry, looked up): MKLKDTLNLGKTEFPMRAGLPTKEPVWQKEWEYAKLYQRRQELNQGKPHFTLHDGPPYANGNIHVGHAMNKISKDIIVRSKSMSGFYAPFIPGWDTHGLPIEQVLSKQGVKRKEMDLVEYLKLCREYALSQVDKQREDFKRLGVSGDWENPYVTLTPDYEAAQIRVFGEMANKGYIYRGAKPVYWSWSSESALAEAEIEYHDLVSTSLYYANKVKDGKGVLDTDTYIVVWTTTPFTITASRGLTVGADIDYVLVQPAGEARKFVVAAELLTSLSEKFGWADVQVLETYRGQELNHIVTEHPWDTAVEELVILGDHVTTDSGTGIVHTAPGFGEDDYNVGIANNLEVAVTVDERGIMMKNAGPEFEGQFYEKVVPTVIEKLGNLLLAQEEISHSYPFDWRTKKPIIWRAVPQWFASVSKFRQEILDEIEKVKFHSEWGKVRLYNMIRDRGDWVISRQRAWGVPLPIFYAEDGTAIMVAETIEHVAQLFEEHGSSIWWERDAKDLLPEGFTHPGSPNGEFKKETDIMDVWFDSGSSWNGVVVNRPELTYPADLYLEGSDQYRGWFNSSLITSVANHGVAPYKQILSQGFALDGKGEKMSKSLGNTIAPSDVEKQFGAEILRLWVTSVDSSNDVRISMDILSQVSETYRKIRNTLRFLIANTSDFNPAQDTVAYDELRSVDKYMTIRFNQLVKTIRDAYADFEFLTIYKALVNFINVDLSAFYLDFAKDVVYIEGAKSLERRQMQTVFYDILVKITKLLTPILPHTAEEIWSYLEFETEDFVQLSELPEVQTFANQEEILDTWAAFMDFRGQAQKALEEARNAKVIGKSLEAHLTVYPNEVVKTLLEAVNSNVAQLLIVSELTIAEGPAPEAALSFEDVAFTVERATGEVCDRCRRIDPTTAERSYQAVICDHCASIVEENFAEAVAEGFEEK
UniProt Q58605, sequence (whole entry, looked up): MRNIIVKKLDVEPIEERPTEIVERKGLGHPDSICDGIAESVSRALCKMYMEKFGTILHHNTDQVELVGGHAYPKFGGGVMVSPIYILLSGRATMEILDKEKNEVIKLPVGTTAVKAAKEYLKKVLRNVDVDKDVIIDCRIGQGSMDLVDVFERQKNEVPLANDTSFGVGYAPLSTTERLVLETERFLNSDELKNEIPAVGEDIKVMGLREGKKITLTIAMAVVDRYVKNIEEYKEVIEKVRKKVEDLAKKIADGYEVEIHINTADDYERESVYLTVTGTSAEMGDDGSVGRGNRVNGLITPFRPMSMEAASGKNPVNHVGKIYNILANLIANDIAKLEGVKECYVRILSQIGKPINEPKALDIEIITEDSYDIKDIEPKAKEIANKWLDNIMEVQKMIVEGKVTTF
UniProt O34714, sequence (whole entry, looked up): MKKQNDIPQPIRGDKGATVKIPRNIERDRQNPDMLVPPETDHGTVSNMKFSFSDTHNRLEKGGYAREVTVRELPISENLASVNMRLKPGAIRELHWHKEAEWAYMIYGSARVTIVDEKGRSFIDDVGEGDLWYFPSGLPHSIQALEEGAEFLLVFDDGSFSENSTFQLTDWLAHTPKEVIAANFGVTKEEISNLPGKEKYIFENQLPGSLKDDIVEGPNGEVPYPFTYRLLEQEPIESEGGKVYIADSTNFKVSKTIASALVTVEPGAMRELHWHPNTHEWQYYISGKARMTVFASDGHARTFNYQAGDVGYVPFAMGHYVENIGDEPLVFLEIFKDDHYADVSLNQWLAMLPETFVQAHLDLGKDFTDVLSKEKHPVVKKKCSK
UniProt P19337, sequence (whole entry, looked up): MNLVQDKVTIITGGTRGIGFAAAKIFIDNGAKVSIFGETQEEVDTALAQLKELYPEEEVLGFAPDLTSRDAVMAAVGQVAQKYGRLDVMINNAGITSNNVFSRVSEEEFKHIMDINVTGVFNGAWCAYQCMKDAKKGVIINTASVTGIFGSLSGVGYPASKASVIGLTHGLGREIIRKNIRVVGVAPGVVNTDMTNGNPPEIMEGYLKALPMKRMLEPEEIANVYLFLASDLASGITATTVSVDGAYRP

B1 (UGT1A9)
Km (O=C(O)/C=C/c1ccc(O)c(O)c1; pH 7.4, 37 °C): 1010 µM and 564 µM

B2 (GTPBP3 N259A)
kcat (Nc1nc2c(ncn2[C@@H]2O[C@H](COP(=O)(O)OP(=O)(O)OP(=O)(O)O)[C@@H](O)[C@H]2O)c(=O)[nH]1; pH 8, 37 °C, KCl 300 mM): 0.00117 ± 0.000167 s⁻¹

MPO (Homo sapiens, UniProt P05164)
kcat (CC(=O)N1c2ccc(O)cc2Oc2cc(O)ccc21; 25 °C, stopped-flow, integrated fit): 224 ± 50 s⁻¹

B3 (MauG)
kcat (O=C1O[C@H]([C@@H](O)CO)C(O)=C1O; pH 7.5, 25 °C, with: H2O2 100 µM): 0.24 ± 0.01 s⁻¹

B4 (LYS1 C205S/K99M)
kcat (NCCCC[C@H](N)C(=O)O; pH 7.2, 25 °C, with: NADH and α-Kg): 68 ± 4 s⁻¹

B5 (MTRR A129T)
kcat (O=C1C(Cl)=CC(=Nc2ccc(O)cc2)C=C1Cl; pH 7.5, 37 °C, substoichiometric FMN, with: NADPH): 0.058 ± 0.005 s⁻¹

ileS (Streptococcus pneumoniae, UniProt Q04JB0)
kcat (CC(C)C[C@H](N)C(=O)O; pH 7.2, 37 °C, with: ATP 2 mM): 0.00267 ± 0.000333 s⁻¹

oxdC (Bacillus subtilis, UniProt O34714)
kcat (O=C(O)C(=O)O; pH 4.2, with: Mn 1.87 per monomer, Triton X-100.2%): 53 ± 1.5 s⁻¹

B6 (protein Y93A)
kcat (Nc1ccn([C@@H]2O[C@H](CO)[C@@H](O)[C@H]2O)c(=O)n1; pH 7.2, 25 °C, KCl 100 mM, with: ATP 100–200 µM): 4.5 ± 0.8 s⁻¹

B7 (YdjH)
kcat (OC[C@H]1O[C@H](CO)[C@@H](O)[C@@H]1O; pH 7.4, 30 °C, KCl 100 mM, with: ATP 2.0 mM, MgCl2 5.0 mM): 0.06 ± 0.01 s⁻¹

BaiA2 (Clostridium scindens, UniProt P19337)
kcat (C[C@H](CCC(=O)SCCNC(=O)CCNC(=O)[C@H](O)C(C)(C)COP(=O)(O)OP(=O)(O)OC[C@H]1O[C@@H](n2cnc3c(N)ncnc32)[C@H](O)[C@@H]1OP(=O)(O)O)[C@H]1CC[C@H]2[C@@H]3[C@H](O)C[C@@H]4CC(=O)CC[C@]4(C)[C@H]3C[C@H](O)[C@]12C; pH 8.7, 37 °C, with: NADH): 0.138 s⁻¹

B8 (protein F222G)
kcat (CC(C)=CCC/C(C)=C/COP(=O)(O)OP(=O)(O)O; with: tri-Tyr peptide acceptor): 0.458 ± 0.0183 s⁻¹

B9 (cyc1 F198L)
kcat (CC(C)=CCC/C(C)=C/CC/C(C)=C/CO[P@@](=O)(O)OP(=O)(O)O; pH 6.5, 30 °C, with: MgCl2 10 mM): 0.00475 ± 5e-05 s⁻¹

Tat (Mus musculus, UniProt Q8QZR1)
kcat (N[C@@H](Cc1ccc(O)cc1)C(=O)O; pH 7, 38 °C, 100 mM phosphate, with: 10 mM KGA; PLP): 19.3 ± 4 s⁻¹

NahK (Pseudomonas putida, UniProt Q1XGK3)
kcat (O=C(O)C/C=C/C(=O)C(=O)O; pH 7.4, 25 °C, sodium phosphate 20 mM, with: MgCl2 5 mM): 98.8 ± 2.7 s⁻¹

Mj-MAT (Methanocaldococcus jannaschii, UniProt Q58605)
kcat (CSCC[C@H](N)C(=O)O; 55 °C, with: ATP 2.5 mM, methionine 0.05-1 mM): 1.46 ± 0.05 s⁻¹

B10 (asnB)
kcat (N[C@@H](CC(=O)O)C(=O)O; pH 8, 37 °C, apparent, with: L-glutamine 20 mM): 0.67 ± 0.02 s⁻¹

B11 (enzyme)
kcat (NC(=O)c1ccc[n+]([C@@H]2O[C@H](COP(=O)(O)OP(=O)(O)OC[C@H]3O[C@@H](n4cnc5c(N)ncnc54)[C@H](OP(=O)(O)O)[C@@H]3O)[C@@H](O)[C@H]2O)c1; pH 8, 30 °C, cofactor varied): 22 ± 1 s⁻¹

Some of these lines once more:
B3 (MauG)
kcat (O=C1O[C@H]([C@@H](O)CO)C(O)=C1O; pH 7.5, 25 °C, with: H2O2 100 µM): 0.24 ± 0.01 s⁻¹

B4 (LYS1 C205S/K99M)
kcat (NCCCC[C@H](N)C(=O)O; pH 7.2, 25 °C, with: NADH and α-Kg): 68 ± 4 s⁻¹
